Assay results collected from several papers.
Lines come from different studies, so protocols differ. Values joined by “and” are separate records of one study, mostly repeats; a detail may differ. Numbers after ± are the reported error.
Target: Alpha-glucosidase MAL12 (MAL12, Saccharomyces cerevisiae S288c, UniProt P53341)
Sequence of UniProt P53341 (whole entry, looked up): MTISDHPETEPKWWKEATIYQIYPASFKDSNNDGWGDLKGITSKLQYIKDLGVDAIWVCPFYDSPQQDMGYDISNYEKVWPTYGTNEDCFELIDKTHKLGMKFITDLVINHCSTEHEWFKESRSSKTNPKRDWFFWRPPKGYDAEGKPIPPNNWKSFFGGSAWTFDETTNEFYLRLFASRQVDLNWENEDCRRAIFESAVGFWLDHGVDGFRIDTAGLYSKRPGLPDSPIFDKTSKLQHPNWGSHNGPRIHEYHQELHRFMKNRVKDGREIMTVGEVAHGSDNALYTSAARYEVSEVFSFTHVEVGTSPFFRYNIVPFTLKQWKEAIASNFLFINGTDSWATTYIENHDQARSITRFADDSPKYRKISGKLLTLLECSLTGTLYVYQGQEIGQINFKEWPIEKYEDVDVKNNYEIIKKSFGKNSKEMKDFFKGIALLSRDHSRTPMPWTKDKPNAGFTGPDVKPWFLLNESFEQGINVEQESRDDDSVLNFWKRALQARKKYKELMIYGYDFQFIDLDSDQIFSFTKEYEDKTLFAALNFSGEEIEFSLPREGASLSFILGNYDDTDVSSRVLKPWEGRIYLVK

SMILES | read-out | action | tested at | time | setting | together with | inhibition
O=C(O)Cc1ccc(O)cc1 |  | inhibitor | 100 µg/mL | 0.4167 h |  | p-nitrophenyl glucoside substrate | 35.6 ± 4.86%
C[C@H]1O[C@H](O[C@H]2[C@H](O)[C@@H](O)[C@@H](O[C@H]3[C@H](O)[C@@H](O)C(O)O[C@@H]3CO)O[C@@H]2CO)[C@H](O)[C@@H](O)[C@@H]1N[C@H]1C=C(CO)[C@@H](O)[C@H](O)[C@H]1O (stereo partly shown) | enzyme activity | inhibitor | concentration not given |  |  |  | 98.2 ± 1.24%
CCCCCCCCCCCCCCNC(=O)/C=C/c1ccc(O)c(O)c1 | enzyme activity |  | 10 µM |  |  | α-amylase present | 81.5 ± 0.89%
Cc1cccc(C)c1NC(=S)N/N=C/c1coc2cc(F)ccc2c1=O | enzyme activity | inhibitor | 500 µM |  |  |  | 89.6%
CCCCCCCCC1NCCc2cc(O)c(O)cc21 (stereo not shown) | enzyme activity | inhibitor | 100 µM |  | DMSO solvent | pNPG substrate | 35.5 ± 1.57%
COc1ccc(-c2coc3c(Cn4ccnc4)c(O)ccc3c2=O)cc1OC |  | inhibitor | 25 µM |  |  |  | 1.08%
CC(C)CNC(=S)N/N=C/c1coc2cc(F)ccc2c1=O | enzyme activity | inhibitor | 500 µM |  |  |  | 87.7%
COc1ccc(-c2coc3c(Cn4ccnc4)c(O)ccc3c2=O)cc1 |  | inhibitor | 25 µM |  |  |  | 11.8%
Oc1ccc(C2NCCc3cc(O)c(O)cc32)cc1O (stereo not shown) | enzyme activity | inhibitor | 100 µM |  | DMSO solvent | pNPG substrate | 62.7 ± 3.2%
COc1ccc(-c2c(C)oc3c(Cn4cccn4)c(O)ccc3c2=O)cc1 |  | inhibitor | 25 µM |  |  |  | 15.2%
O=c1c(/C=N/NC(=S)Nc2ccc(Br)cc2)coc2cc(F)ccc12 | enzyme activity | inhibitor | 500 µM |  |  |  | 92.2%
O=Cc1ccccc1O |  | inhibitor | 100 µg/mL | 0.4167 h |  | p-nitrophenyl glucoside substrate | 32.2 ± 2.65%
COc1cc(Cn2nc(C)cc2C)ccc1O |  | inhibitor | 25 µM |  |  |  | 4.9%
OCc1ccc(O)cc1 |  | inhibitor | 100 µg/mL | 0.4167 h |  | p-nitrophenyl glucoside substrate | 45 ± 1.75%
Oc1ccc(Cn2cccn2)cc1 |  | inhibitor | 25 µM |  |  |  | < 0%
O=CNCc1ccc(O)cc1 |  | inhibitor | 100 µg/mL | 0.4167 h |  | p-nitrophenyl glucoside substrate | 44.2 ± 2.99%
Oc1cc2c(cc1O)C(CCc1ccccc1)NCC2 (stereo not shown) | enzyme activity | inhibitor | 100 µM |  | DMSO solvent | pNPG substrate | 62.7 ± 0.84%

SMILES | read-out | action | tested at | time | setting | together with | inhibition
COc1ccc(-c2coc3c(Cn4cccn4)c(O)ccc3c2=O)cc1 |  | inhibitor | 25 µM |  |  |  | 39.2%
O=c1c(/C=N/NC(=S)Nc2ccccc2)coc2cc(F)ccc12 | enzyme activity | inhibitor | 500 µM |  |  |  | 87.7%
Cc1cc(=O)oc2ccc(-c3cc(-c4ccccc4)nc(N)n3)c(O)c12 | enzyme activity | inhibitor | concentration not given |  |  |  | 65.2 ± 1.23%
CCCCCCCCCC1NCCc2cc(O)c(O)cc21 (stereo not shown) | enzyme activity | inhibitor | 100 µM |  | DMSO solvent | pNPG substrate | 42.8 ± 1.96%
O=c1c(/C=N/NC(=S)Nc2cccc(Cl)c2Cl)coc2cc(F)ccc12 | enzyme activity | inhibitor | 500 µM |  |  |  | 92.5%
COc1ccc(-c2c(C(F)(F)F)oc3c(Cn4cccn4)c(O)ccc3c2=O)cc1 |  | inhibitor | 25 µM |  |  |  | 21.5%
COc1ccc(NC(=S)N/N=C/c2coc3cc(F)ccc3c2=O)cc1 | enzyme activity | inhibitor | 500 µM |  |  |  | 90.6%
COc1cc(Cn2cccn2)ccc1O |  | inhibitor | 25 µM |  |  |  | < 0%
Cc1ccc(NC(=S)N/N=C/c2coc3cc(F)ccc3c2=O)cc1 | enzyme activity | inhibitor | 500 µM |  |  |  | 89%
CCCCCCCCCCC1NCCc2cc(O)c(O)cc21 (stereo not shown) | enzyme activity | inhibitor | 100 µM |  | DMSO solvent | pNPG substrate | 35.4 ± 0.54%
O=c1c(/C=N/NC(=S)NCc2ccccc2)coc2cc(F)ccc12 | enzyme activity | inhibitor | 500 µM |  |  |  | 90.1%
CCCCCC1NCCc2cc(O)c(O)cc21 (stereo not shown) | enzyme activity | inhibitor | 100 µM |  |  | pNPG substrate | 49.8 ± 0.64%
O=c1c(O)c(-c2ccc(O)cc2)oc2cc(O)cc(O)c12 | enzyme activity |  | concentration not given |  |  | p-nitrophenyl α-D-glucoside substrate | 41.7% and 37.8%
COc1cccc(C2NCCc3cc(O)c(O)cc32)c1 (stereo not shown) | enzyme activity | inhibitor | 100 µM |  | DMSO solvent | pNPG substrate | 59.9 ± 3.32%
C[C@@H]1O[C@@H](Oc2ccc(CC#N)cc2)[C@H](O)[C@H](O)[C@H]1O |  | inhibitor | 100 µg/mL | 0.4167 h |  | p-nitrophenyl glucoside substrate | 27.3 ± 1.71%
CCCCCCCCCCCC1NCCc2cc(O)c(O)cc21 (stereo not shown) | enzyme activity | inhibitor | 100 µM |  | DMSO solvent | pNPG substrate | 68.2 ± 2.34%
COc1ccc(-c2cc(-c3ccc4oc(=O)cc(C)c4c3O)nc(N)n2)cc1 | enzyme activity | inhibitor | concentration not given |  |  |  | 75.8 ± 1.24%
